Experimental data collected from several papers.
Every numbered part comes from another study and shows a few of its results, in no order.

Block 1
Target: RNA binding protein fox-1 homolog 2, RRM domain, GST-SBP tag (RBFOX2, Homo sapiens, UniProt O43251-10, residues 100-194)
Technique: RNA Bind-n-Seq
Form: RNA
Sample: in vitro
Tested at: 365 nM
Notes: natural RNA segment, single round, ends assumed
Reference: no-protein control
Reading: higher = stronger binding
All sequences stand within: GGGAGUUCUACAGUCCGACGAUC … UGGAAUUCUCGGGUGCCAA
Target sequence (chain): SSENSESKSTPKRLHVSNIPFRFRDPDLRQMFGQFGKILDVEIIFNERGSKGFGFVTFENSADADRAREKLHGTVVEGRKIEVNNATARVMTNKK
`AACCUCCAGAGCAGUACUGUCACCUUUACUCACUGGGCAGAAAUAAAGACAUGUGCCAUAGACUUCCCAGAGUGGCUCUGAUUUGUUCAGGAGGUGGGGUGAAGACAGGC` — result for “RBNS enrichment (R)”: 0.369.
For `UCUUUGUCCUCCCUCUGCCCAGAUUUUGAUGUAGUCUAAUUGACAUCCUUCUCUUCCCAACUUUUGUGUGAUCUUUUAGGAAAAAAAAUAAAUAUUUUUAACAUUAAAGC`, “RBNS enrichment (R)” read 0.683.
`GCAGGGCAGAGUUCAGGUCCACUGGGCUGAGUGUCCCCUUGGGCCCAUGGCCCAGUCACUCAGGGGCGAGUUUCUUUUCUAACAUAGCCCUUUCUUUGCCAUGAGGCCAU` — result for “RBNS enrichment (R)”: 0.285.
For `CCUCUACCUGGCCCUCAUCCCAACAGCCCAGCAAGGGGAGAGAGAAAGAGAAUUCUUUUCUAUAGAACGAGUGGGGGCGGGGAUGGGUAGGGAUUUAUCCAAUCUAAGCC`, “RBNS enrichment (R)” read 0.48.
Under “RBNS enrichment (R)”, `UGAGAAAUGUAUGCGUUUGUAAACUUGCCAUGGGUCCGAAUAUUUUCAAGCCAUGUAAUCCAUUAAUUUUGUGGGAAGCUUAAUAAAUCAGAAGCUUUUAUUUCUUCUUA` is recorded as 1.16.
`CCUUGUGCUUCGGUUUCUAAGGGCCCUGUGGUGUGCAGUGAGCUCCCUUCCCGGCACGUGGAUUUUUUUUUUCAGUUUGUUAGAAGCCAGUGUAUGUCUUAAGCCUCUGC` — result for “RBNS enrichment (R)”: 0.522.
`CCCCCCAGGUAGACAGGUGCAUUUUGACCCUUCUGGACAGAAGAAACAAUGUGUUUUCCACCCCACCCAAUGGGAUUGUUGAAGUAUUAACUGUGCUAAGAGAUCUUGAC` — result for “RBNS enrichment (R)”: 0.305.
For `UGGGUAUGAGGUGUGCAGGGGGCUGGGUGGCUUUCCUCAGCCCAUUACAAAGAGGGCCCCCCACCCCCCCCACGCGGCAGCCUGGGAGGCUCUGCUGUCCUCUUAAGCCU`, “RBNS enrichment (R)” read 0.216.
For `CCCUGCUGAGGUUCAGAACUUUGAACCCUCAGGUUCUCCUGGGUUUACUUCACCUGAGGGAAUAGCCUCUCUACCUCGCAGAAAAUGUACCCUACCCCUCAAAUAUUGCC`, “RBNS enrichment (R)” read 0.659.
`GUUGUUCUUUCGUUUCUGUCUAAAUGUCAGUGUGUUCAAACCCCCAGAGGGUUCUGUUUUUCCCAUUCCCUUCUGGACUUUAAAUAAAUAUUUAAAACUGAGCAAUGGAA` — result for “RBNS enrichment (R)”: 0.267.
For `CAUUUGACUGGUUUGCCCUGGAAUCCACUGCACCUUUACACUGCACCAUGAAACCUACACUCCCUGGUAUCAUAGCGCGUCAUCACCUCAACAAGUCAGUCGUCUCCAUU`, “RBNS enrichment (R)” read 0.994.
`GCGCCUACCCGGGCCGCCCCCGCGGCCUGGCCCUCGGCGCGGGCUCCUUCCCGCUUCCCCCGACUUCACACGGCGGCUUCGGACCAACUCCCUCACUCCCGCCCGAGGGG` — result for “RBNS enrichment (R)”: 0.324.

Block 2
Target: Sal-like protein 4, full length isoform B (SALL4, Homo sapiens, UniProt Q9UJQ4-2, residues 1-616)
Technique: universal PBM
Form: double-stranded DNA, one strand shown
Sample: in vitro
Tested at: not given
Notes: 8-mer, flanks averaged, mean of replicates
Reading: higher = stronger binding
Construct (chain): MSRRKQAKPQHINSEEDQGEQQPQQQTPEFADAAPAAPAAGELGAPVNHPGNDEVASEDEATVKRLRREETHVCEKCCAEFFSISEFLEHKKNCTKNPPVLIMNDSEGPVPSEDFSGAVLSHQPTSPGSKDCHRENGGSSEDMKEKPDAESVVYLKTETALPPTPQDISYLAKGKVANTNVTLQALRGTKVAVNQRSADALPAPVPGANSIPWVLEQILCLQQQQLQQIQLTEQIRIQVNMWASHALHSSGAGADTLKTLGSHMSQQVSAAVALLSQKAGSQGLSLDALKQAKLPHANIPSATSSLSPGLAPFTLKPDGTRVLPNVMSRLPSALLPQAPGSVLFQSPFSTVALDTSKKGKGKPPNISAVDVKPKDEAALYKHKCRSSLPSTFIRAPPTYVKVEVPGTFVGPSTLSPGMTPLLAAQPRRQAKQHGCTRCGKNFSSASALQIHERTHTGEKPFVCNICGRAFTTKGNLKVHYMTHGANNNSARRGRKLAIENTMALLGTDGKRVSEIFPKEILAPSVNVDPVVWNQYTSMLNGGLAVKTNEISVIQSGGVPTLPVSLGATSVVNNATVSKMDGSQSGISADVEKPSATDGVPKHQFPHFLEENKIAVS
The E-score of `GAGGTCGA` is reported as -0.136.
`AACACGGT` gave an E-score of -0.118.
The E-score of `CACATGAC` is reported as -0.0103.
For `CACGAATG`, the E-score was 0.116.
The E-score of `GCCAGTCC` is reported as -0.307.
`ATGGTATG` gave an E-score of 0.13.
The E-score of `AACTGGAC` is reported as -0.0627.
The E-score of `ATGGGTGC` is reported as 0.0491.
`GCCCTAGA` has an E-score of -0.216.
The E-score of `GACCGGAC` is reported as -0.34.
For `ACTTCACG`, the E-score was -0.082.
`CCGGCGGA` gave an E-score of -0.232.
The E-score of `CTCCAACC` is reported as -0.0816.
With `ACTCGCTC` the E-score was -0.18.
With `GACAGGTA` the E-score was 0.078.
With `AGAACTCT` the E-score was -0.132.
The E-score of `ACCTCACT` is reported as -0.00039.
`GAAATATA` gave an E-score of 0.436.
`CATCCGGG` has an E-score of -0.32.
For `TAACCCGA`, the E-score was -0.0722.
For `TCGATAGA`, the E-score was 0.172.
`AATGCCCC` gave an E-score of -0.242.
`AATCCAAT` has an E-score of 0.156.
The E-score of `GAAGTAAA` is reported as 0.166.
`ACTCGCTG` has an E-score of -0.215.

Block 3
Target: Ras GTPase-activating protein-binding protein 1, C-terminal RGG region (G3BP1, Homo sapiens, UniProt Q13283)
UniProt Q13283, sequence (whole entry, looked up): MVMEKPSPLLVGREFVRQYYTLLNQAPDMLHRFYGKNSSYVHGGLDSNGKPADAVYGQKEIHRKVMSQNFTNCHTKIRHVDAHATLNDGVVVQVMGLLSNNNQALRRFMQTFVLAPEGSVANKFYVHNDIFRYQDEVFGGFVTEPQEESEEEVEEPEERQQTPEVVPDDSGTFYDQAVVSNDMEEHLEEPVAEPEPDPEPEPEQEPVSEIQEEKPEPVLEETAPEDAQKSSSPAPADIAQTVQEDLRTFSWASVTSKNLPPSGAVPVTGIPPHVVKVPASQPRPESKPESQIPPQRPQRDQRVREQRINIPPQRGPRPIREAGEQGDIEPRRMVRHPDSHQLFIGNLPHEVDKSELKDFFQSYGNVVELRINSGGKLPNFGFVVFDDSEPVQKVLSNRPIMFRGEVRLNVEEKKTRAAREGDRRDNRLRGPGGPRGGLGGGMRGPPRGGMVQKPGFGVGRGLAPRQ
Technique: RNA Bind-n-Seq
Form: RNA
Sample: in vitro
Tested at: 1 µM
Notes: whole 134-nt RNA, ends assumed
Added: 150 mM KCl
Reference: input library
Reading: higher = stronger binding
All sequences stand within: GGGAGUUCUACAGUCCGACGAUC … UGGAAUUCUCGGGUGUCAAGG
With `UUUGGAGAAGGAACCCCACUCUCCAGCUGACCAGCCUGAACAACAGGCAGAAUCCACUUUGACAUCAGCUGAGACUAGGGGAAGCAAGAA` the log2 enrichment was -1.5.
The log2 enrichment of `ACCAGGCAGGUGGGCAUCUUUGGGAAGUGGGGCAAGGGGGGGAUAGGGAGGGGGGUAACACUUUGGGAACAGGUGGUCCCAGGUCGUUUC` is reported as -1.08.
For `CACAGACAACACGCACCCACACAGACACAGAGGGAAGGGGUUGGGAUGGGGACAGGGUGCACGGCAGGGCGGGGUAGGACCCCAGCCCCU`, the log2 enrichment was -0.499.
For `GCUUAUGUAGACAUGAGGAAGAUUGGCAGUAGCCGGGGAAUGGUUUCUGCAUACCCUCGACAGCUAGAGUCAUUAAUCCGCUUAGCAGAA`, the log2 enrichment was -0.503.
For `CAAGUCCUGUGCUACACAUCGUAUGUACCGAAUCGGGGUUGGGGUUGGGGUUGGGAAAGUAUUAUGUUACGCCGUUCGGAUCUGCACUUC`, the log2 enrichment was 2.47.
With `UCCUGUGCUACACAUCGUAUGUACCGAAUCAAACCCCCAAACCCCCCCAAACCCCCAAAAAAGUAUUAUGUUACGCCGUUCGGAUCUGCA` the log2 enrichment was -0.771.
For `UGGGAGGUGGAUUUUGUUUAUUUUUUUAGCUCAUUUCCAGGGGUGAGAAUUUUUUUUUAAUAUGUGUCAUGAAUAAAGUUGUUUUUGAAA`, the log2 enrichment was 2.69.
With `UCAAGUCCUGUGCUACACAUCGUAUGUACCGAAUCGGGGAAGGGGAAGGGAAGGGAAAGUAUUAUGUUACGCCGUUCGGAUCUGCACUUC` the log2 enrichment was 2.21.
`UCAAGUCCUGUGCUACACAUCGUAUGUACCGAAUCGUGUGUGUGUGUGUGUGUGUAAAGUAUUAUGUUACGCCGUUCGGAUCUGCACUUC` has a log2 enrichment of 0.958.
For `CAAGUCCUGUGCUACACAUCGUAUGUACCGAAUCGGGUUUGGGAAAAAGGGUGGGAAAGUAUUAUGUUACGCCGUUCGGAUCUGCACUUC`, the log2 enrichment was 2.09.

Block 4
Target: Histone acetyltransferase KAT6A, both winged helices, GST fusion (KAT6A, Homo sapiens, UniProt Q92794, residues 1-181)
Technique: protein binding microarray
Form: double-stranded DNA, one strand shown
Sample: in vitro
Tested at: not given
Notes: 8-mer, flanks averaged, mean of 2 arrays, mostly near background
Reference: not given
Reading: higher = stronger binding
Residues (chain): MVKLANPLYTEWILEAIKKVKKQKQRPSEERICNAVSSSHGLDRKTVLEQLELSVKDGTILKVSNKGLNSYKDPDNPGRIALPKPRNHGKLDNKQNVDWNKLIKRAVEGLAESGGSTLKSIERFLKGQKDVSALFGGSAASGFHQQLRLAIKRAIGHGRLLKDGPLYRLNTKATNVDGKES
The E-score of `TATATTAA` is reported as 0.00681.
`GCGAGGAC` gave an E-score of 0.00375.
The E-score of `TAGGATAA` is reported as -0.0738.
`AGATGGCC` gave an E-score of -0.0201.
The E-score of `GCACTTAC` is reported as 0.0323.
The E-score of `TGTCGAAA` is reported as -0.0262.
The E-score of `CGGACCGC` is reported as 0.201.
For `ATAACAGA`, the E-score was -0.0663.
For `CTGTACGC`, the E-score was 0.19.
With `ACTTGATC` the E-score was -0.0537.
The E-score of `GATTTAAA` is reported as -0.113.
The E-score of `GACCTATC` is reported as -0.0886.
For `ATGCAATC`, the E-score was -0.00397.
`AATTCGCG` gave an E-score of 0.212.
The E-score of `GCCTGGGA` is reported as -0.0475.
The E-score of `CAAACGGG` is reported as 0.268.
The E-score of `TAACCTAA` is reported as -0.0957.
With `AGAAGCCA` the E-score was -0.0919.
`GAGGGGTA` gave an E-score of -0.183.
With `CGTGGTTC` the E-score was 0.122.
The E-score of `CGTGCGTC` is reported as 0.249.
`TCGCGAAA` gave an E-score of 0.262.
`CGTGTTCC` gave an E-score of 0.164.
For `ATGGCAAA`, the E-score was -0.0182.
With `AAAAGGGC` the E-score was -0.176.

A few entries again (block 2):
The E-score of `ATGGGTGC` is reported as 0.0491.
For `ACTTCACG`, the E-score was -0.082.
The E-score of `GAAGTAAA` is reported as 0.166.
With `ACTCGCTC` the E-score was -0.18.
For `CACGAATG`, the E-score was 0.116.
The E-score of `GCCAGTCC` is reported as -0.307.
For `TCGATAGA`, the E-score was 0.172.
The E-score of `AACTGGAC` is reported as -0.0627.
For `TAACCCGA`, the E-score was -0.0722.
The E-score of `GACCGGAC` is reported as -0.34.
With `GACAGGTA` the E-score was 0.078.
